Measured values collected from several papers.
Compare with care: the assays were run in different laboratories. “And” joins repeats or separate records; there may be more than shown.

| Compound | cell line | test | system | setting | IC50 |
| --- | --- | --- | --- | --- | --- |
| CC(=O)N[C@H](C(=O)N[C@@H](CCCNC(=N)N)C(=O)N[C@@H](CCCCN)C(=O)N[C@@H](CCCNC(=N)N)C(=O)N[C@H](C(=O)N[C@@H](CC(C)C)C(=O)N[C@@H](CCCNC(=N)N)C(=O)N[C@@]1(C)CCCC=CCCC[C@@](C)(C(=O)N[C@@H](CCCNC(=N)N)C(=O)N[C@@H](CCC(=O)O)C(=O)N[C@@H](CC(C)C)C(=O)N[C@H](C(=O)N[C@@H](CCC(=O)O)C(N)=O)C(C)C)NC(=O)[C@H](CCC(N)=O)NC(=O)[C@H](CC(C)C)NC(=O)[C@H](CC(C)C)NC1=O)[C@@H](C)O)C(C)C | H3255 (EGFR L858R) | cell viability | – | 18 h, serum-free | 2.05 µM |
| Cc1cc(Nc2nc(C[C@@]3(C(=O)O)CCN(Cc4cccc(Cl)c4F)[C@H](C)C3)cc(C)c2F)[nH]n1 | SNU-81 | cell proliferation, CellTiter-Glo | – | 5 days | 0.115 µM |
| CCOc1ccccc1-n1c(CN2C[C@H]3CC[C@@H](C2)N3)nc2ccccc2c1=O | PANC-1 | cell growth or viability, ATP luminescence | – | 72 h | 5 µM |
| C[C@@H]1COCCN1c1nc(NCc2cccnc2C(F)(F)F)c2cccnc2n1 | cardiomyocytes | cellular ATP level | – | in vitro toxicology | > 14 µM |
| C#CCCCC[C@H](C)C[C@@H](C)C(=O)N[C@@H](C)C(=O)N1CCC[C@H]1C(=O)N[C@H](C(=O)N[C@H](C(=O)N[C@H](C(=O)N[C@@H](Cc1ccccc1)C(=O)N1CCC[C@H]1C(=O)N1CCC[C@H]1C(C)=O)C(C)C)C(C)C)C(C)C | DU-145 | cell growth or viability, SRB | – | – | 1.18 µM and 1.66 µM and 1.32 µM |
| CC(=O)N[C@H](C(=O)N[C@@H](CCCNC(=N)N)C(=O)N[C@@H](CCCCN)C(=O)N[C@@H](CCCNC(=N)N)C(=O)N[C@@]1(C)CCCC=CCCC[C@@](C)(C(=O)N[C@@H](CC(C)C)C(=O)N[C@@H](CCC(N)=O)C(=O)N[C@@H](CCC(=O)O)C(=O)N[C@@H](CCCNC(=N)N)C(=O)N[C@@H](CCC(=O)O)C(=O)N[C@@H](CC(C)C)C(=O)N[C@H](C(=O)N[C@@H](CCC(=O)O)C(N)=O)C(C)C)NC(=O)[C@H](CCCNC(=N)N)NC(=O)[C@H](CCCNC(=N)N)NC(=O)[C@H](CC(C)C)NC1=O)C(C)C | SK-N-MC | cell viability | – | 18 h, serum-free | > 100 µM |
| CC(=O)[O][Pt]([NH2])([NH2])([Cl])([Cl])[O]C(=O)C(Cl)Cl | PSN1 | cell growth or viability, MTT | – | 72 h | 0.94 µM |
| Cc1sc2c(c1C)C(c1ccc(-c3cccc(NC(=O)c4cnn5cccnc45)c3)cc1)=N[C@@H](CC(N)=O)c1nnc(C)n1-2 | MV4-11 | cell growth or viability, ATP luminescence | – | 72 h | 0.0059 µM |
| CC[C@H](C)[C@H](NC(=O)[C@H](C)NC(=O)[C@H](Cc1c[nH]cn1)NC(=O)[C@H](CC(C)C)NC(=O)CNC(=O)[C@H](Cc1ccccc1)NC(=O)CNC(=O)[C@H](Cc1ccc(O)cc1)NC(=O)CNC(=O)[C@H](CCCCN)NC(=O)[C@@H](NC(=O)[C@H](Cc1ccccc1)NC(=O)[C@@H](NC(=O)[C@H](CC(=O)O)NC(=O)[C@H](CCCNC(=N)N)NC(=O)[C@H](C)NC(=O)[C@H](CO)NC(=O)[C@H](CCCCN)NC(=O)CNC(=O)[C@H](CC(C)C)NC(=O)[C@H](CC(=O)O)NC(=O)[C@H](C)NC(=O)[C@H](Cc1ccc(O)cc1)NC(=O)[C@@H](NC(=O)[C@@H]1CCCN1C(=O)[C@@H]1CCCN1C(=O)[C@@H](NC(=O)[C@H](C)NC(=O)[C@@H](N)CCSC)C(C)C)[C@@H](C)O)C(C)C)[C@@H](C)O)C(=O)N[C@@H](Cc1ccc(O)cc1)C(=O)N1CCC[C@H]1C(=O)N[C@@H](CCCNC(=N)N)C(=O)N[C@@H](Cc1c[nH]cn1)C(=O)O | CLL patient PBMCs | cell death, PI staining flow cytometry | – | 90 min | > 25 µM |
| Cc1cc(Oc2nc(N3CC[C@@H](c4ccncc4)C3)ncc2F)[nH]n1 | A-375 | cell proliferation | skin cancer | – | 61.7 µM |
| O=C1C=CC(=C(c2ccc(O)cc2)c2c(C#Cc3ccc(O)cc3)cccc2-c2ccc(O)cc2)C=C1 | MGC-803 | cell growth or viability, MTT | – | 48 h | 14.8 µM |
| CCOc1ccccc1-n1c(CN2CCNCC2)nc2cc(OC)ccc2c1=O | PANC-1 | cell growth or viability, ATP luminescence | – | 72 h | 8.7 µM |
| CC(=O)N[C@H](C(=O)N[C@@H](CCCNC(=N)N)C(=O)N[C@@H](CCCCN)C(=O)N[C@@H](CCCNC(=N)N)C(=O)N[C@]1(C)CCCCCCC=CCCC[C@@](C)(C(=O)N[C@@H](CCCNC(=N)N)C(=O)N[C@@H](CCC(=O)O)C(=O)N[C@@H](CC(C)C)C(=O)N[C@H](C(=O)N[C@@H](CCC(=O)O)C(N)=O)C(C)C)NC(=O)[C@H](CCC(N)=O)NC(=O)[C@H](C)NC(=O)[C@H](C)NC(=O)[C@H](CCCNC(=N)N)NC(=O)[C@H](CCCNC(=N)N)NC(=O)[C@H](C)NC1=O)C(C)C | SK-N-MC | cell viability | – | 18 h, serum-free | > 10 µM |
| CC(C)C12OC1C1OC13C1(C)CCC4=C(COC4=O)C1CC1OC13C2OC(=O)CCCOC1OC(CO)C(O)C(O)C1O (stereo not shown) | CFPAC-1 | cell growth or viability, XTT | – | 47 h | 0.47 µM |
| O=c1c2ccccc2nc(CN2CCNCC2)n1-c1ccccc1 | PANC-1 | cell growth or viability, ATP luminescence | – | 72 h | > 10 µM |
| [CH3][Ti+2][O]C(=O)c1ccc([S][Au][PH](c2ccccc2)(c2ccccc2)c2ccccc2)cc1.c1cc[cH-]c1.c1cc[cH-]c1 | CAKI-1 | cell growth or viability, XTT | – | 24 h | 3.37 µM |
| N#C/C(=C/c1ccc(O)c(O)c1)C(N)=S | HEK293-A GFP-LC3B | LC3B puncta formation | – | 22 h, with: chloroquine, torin1 | > 20 µM |
| CC(=O)N[C@H](C(=O)N[C@@H](CCCNC(=N)N)C(=O)N[C@@H](CCCCN)C(=O)N[C@@H](CCCNC(=N)N)C(=O)NC(C)(C)C(=O)N[C@@H](CC(C)C)C(=O)N[C@@H](CCCNC(=N)N)C(=O)N[C@@H](CCCNC(=N)N)C(=O)N[C@@H](CC(C)C)C(=O)N[C@@H](CC(C)C)C(=O)N[C@@H](CCC(N)=O)C(=O)NC(C)(C)C(=O)N[C@@H](CCCNC(=N)N)C(=O)N[C@@H](CCC(=O)O)C(=O)N[C@@H](CC(C)C)C(=O)N[C@H](C(=O)N[C@@H](CCC(=O)O)C(N)=O)C(C)C)C(C)C | H3255 (EGFR L858R) | cell viability, ATP luminescence | – | 18 h | > 100 µM |
| CC(C)C12OC1C1OC13C1(C)CCC4=C(COC4=O)C1CC1OC13C2OC(=O)CCC(=O)OC1OC(CO)C(O)C(O)C1O (stereo not shown) | SNU-387 | cell growth or viability, XTT | – | 47 h | 15.5 µM |
| CCOc1ccccc1-n1c(CN2CCNCC2)nc2ccc(I)cc2c1=O | PANC-1 | cell growth or viability, ATP luminescence | – | 72 h | > 10 µM |
| O=C(c1cc(Cc2n[nH]c(=O)c3ccccc23)ccc1F)N1CC(CNC2CC2)C1 | KATO III | colony formation | – | – | 1.54 µM |
| CCC1(c2ccc(NC(=O)CCC(=O)OC3OC4OC5(C)CCC6C(C)CCC(C3C)C46OO5)cc2)CCC(=O)NC1=O (mixture of isomers) | DU-145 | cell growth or viability, CCK-8 | – | – | > 50 µM |
| CCCCCCCC(=O)NCCCC[C@H](NC(=O)CCCCCCC)C(=O)N[C@@H](CCCCNC(=O)CCCCCCC)C(=O)NCC(=O)NCC(=O)NCC(=O)N[C@@H](CS)C(=O)N[C@@H](CCCNC(=N)N)C(=O)N[C@@H](CCCCN)C(=O)N1CCC[C@H]1C(=O)N[C@@H](CS)C(=O)N[C@@H](CCCNC(=N)N)C(=O)N[C@@H](CCCCN)C(=O)N1CCC[C@H]1C(N)=O | IPEC-J2 | cell growth or viability, MTT | – | 24 h | 90.2 µM |
| CC1CCC2C(C)C(OC(=O)CCC(=O)N3CCN(CC(=O)Nc4ccc([N+](=O)[O-])c(C(F)(F)F)c4)CC3)OC3OC4(C)CCC1C32OO4 (stereo not shown) | OVCAR-3 | cell growth or viability, CCK-8 | – | – | 0.56 µM |
| CCOc1ccccc1-n1c(CN2[C@@H]3CC[C@H]2CNC3)nc2ccccc2c1=O | PANC-1 | cell growth or viability, ATP luminescence | – | 72 h | 10.1 µM |
| CCCCCCCC(=O)NCCCC[C@H](NC(=O)CCCCCCC)C(=O)N[C@@H](CCCCNC(=O)CCCCCCC)C(=O)NCC(=O)NCC(=O)NCC(=O)N[C@@H](CS)C(=O)N[C@@H](CCCNC(=N)N)C(=O)N[C@@H](CCCCN)C(=O)N1CCC[C@H]1C(=O)N[C@@H](CS)C(=O)N[C@@H](CCCNC(=N)N)C(=O)N[C@@H](CCCCN)C(=O)N1CCC[C@H]1C(=O)N[C@@H](CS)C(=O)N[C@@H](CCCNC(=N)N)C(=O)N[C@@H](CCCCN)C(=O)N1CCC[C@H]1C(=O)N[C@@H](CS)C(=O)N[C@@H](CCCNC(=N)N)C(=O)N[C@@H](CCCCN)C(=O)N1CCC[C@H]1C(N)=O | IPEC-J2 | cell growth or viability, MTT | – | 24 h | 163 µM |
| CCOc1ccccc1-n1c(CN2CCN(C)CC2)nc2ccccc2c1=O | PANC-1 | cell growth or viability, ATP luminescence | – | 72 h | 1.7 µM |
| C[C@H]1[C@H](OC(=O)CCC(=O)OCCC2CCN(CC(=O)Nc3ccc([N+](=O)[O-])c(C(F)(F)F)c3)CC2)O[C@@H]2O[C@@]3(C)CC[C@H]4[C@H](C)CC[C@@H]1[C@@]24OO3 | OVCAR-3 | cell growth or viability, CCK-8 | – | – | 1.24 µM |

Repeated from above:
| Compound | cell line | test | system | setting | IC50 |
| --- | --- | --- | --- | --- | --- |
| CC(=O)N[C@H](C(=O)N[C@@H](CCCNC(=N)N)C(=O)N[C@@H](CCCCN)C(=O)N[C@@H](CCCNC(=N)N)C(=O)N[C@]1(C)CCCCCCC=CCCC[C@@](C)(C(=O)N[C@@H](CCCNC(=N)N)C(=O)N[C@@H](CCC(=O)O)C(=O)N[C@@H](CC(C)C)C(=O)N[C@H](C(=O)N[C@@H](CCC(=O)O)C(N)=O)C(C)C)NC(=O)[C@H](CCC(N)=O)NC(=O)[C@H](C)NC(=O)[C@H](C)NC(=O)[C@H](CCCNC(=N)N)NC(=O)[C@H](CCCNC(=N)N)NC(=O)[C@H](C)NC1=O)C(C)C | SK-N-MC | cell viability | – | 18 h, serum-free | > 10 µM |
| CCOc1ccccc1-n1c(CN2CCNCC2)nc2ccc(I)cc2c1=O | PANC-1 | cell growth or viability, ATP luminescence | – | 72 h | > 10 µM |
